Assay results from different studies.
Each line is one published result; not all experiments were run side by side. Several values in a cell are separate wells, animals, samples, runs or records. ± gives the spread as reported.
GLP1R: Glucagon-like peptide 1 receptor (GLP1R, Homo sapiens, UniProt P43220)
ALB: Albumin (ALB, Bos taurus, UniProt P02769)
T1: riboswitch RNA yjdF aptamer (Bacillus subtilis); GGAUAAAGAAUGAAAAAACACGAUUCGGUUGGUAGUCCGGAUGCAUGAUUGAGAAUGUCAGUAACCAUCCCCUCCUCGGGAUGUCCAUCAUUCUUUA

Structure (SMILES)	target	test	test system	conditions	how to read	measurement	value
COc1cccc(-n2nc3c4cc(Cl)ccc4[nH]cc-3c2=O)c1	Gamma-aminobutyric acid receptor subunit alpha-6/beta-3, with delta subunit (Gabra6/Gabrb3, Rattus norvegicus, UniProt P30191+P63079)	ion current, modulator, two-electrode voltage clamp		300 nM, α6β3δ receptor, together with: GABA EC3-10		efficacy	98.1 ± 3.2%
CC1CCCN(C(=O)c2cc3ncccn3n2)C1 (stereo not drawn)	Transcription intermediary factor 1-beta, PHD-bromodomain (TRIM28, Homo sapiens, UniProt Q13263)	binding, affinity selection mass spectrometry			reference: other proteins in batch	fold enrichment	0.992
C#Cc1cc(-c2cc(Nc3nc(N[C@@H](C)c4ccc(F)cn4)ncc3Cl)n[nH]2)ccc1C=O	EPHB1 (Homo sapiens, UniProt P54762)	enzyme activity, inhibitor		0.2 µM		inhibition	10.5%
CC[C@H](C)[C@H](NC(=O)[C@H](Cc1ccccc1)NC(=O)[C@H](CCC(=O)O)NC(=O)[C@H](CCCNC(=N)N)NC(=O)[C@H](C)NC(=O)[C@H](C)NC(=O)[C@H](CCC(N)=O)NC(=O)[C@H](CCC(=O)O)NC(=O)[C@H](CCC(=O)O)NC(=O)[C@H](CC(C)C)NC(=O)[C@H](Cc1ccc(O)cc1)NC(=O)[C@H](CO)NC(=O)[C@H](CO)NC(=O)[C@@H](NC(=O)[C@H](CC(=O)O)NC(=O)[C@H](CO)NC(=O)[C@@H](NC(=O)[C@H](Cc1ccccc1)NC(=O)[C@@H](NC(=O)CNC(=O)[C@H](CCC(=O)O)NC(=O)[C@H](C)NC(=O)CCc1cnc[nH]1)[C@@H](C)O)[C@@H](C)O)C(C)C)C(=O)N[C@@H](C)C(=O)N[C@@H](Cc1c[nH]c2ccccc12)C(=O)N[C@@H](CC(C)C)C(=O)N[C@H](C(=O)N[C@@H](CCCCNC(=O)COCCOCCNC(=O)COCCOCCNC(=O)CC[C@H](NC(=O)CCCCCCCCCCCCCCCCC(=O)O)C(=O)O)C(=O)NCC(=O)N[C@@H](CCCNC(=N)N)C(=O)N[C@@H](CCCCNc1c(NCCCCCN(O)C(=O)CCC(=O)NCCCCCN(O)C(=O)CCC(=O)NCCCCCN(O)C(C)=O)c(=O)c1=O)C(=O)NCC(=O)NCC(=O)N[C@@H](CO)C(=O)N[C@@H](CCCCNc1c(NCCCCCN(O)C(=O)CCC(=O)NCCCCCN(O)C(=O)CCC(=O)NCCCCCN(O)C(C)=O)c(=O)c1=O)C(=O)NCC(=O)NCC(=O)N[C@@H](CO)C(=O)N[C@@H](CCCCNc1c(NCCCCCN(O)C(=O)CCC(=O)NCCCCCN(O)C(=O)CCC(=O)NCCCCCN(O)C(C)=O)c(=O)c1=O)C(=O)NCC(=O)NCC(=O)N[C@@H](CO)C(=O)N[C@@H](CCCCNc1c(NCCCCCN(O)C(=O)CCC(=O)NCCCCCN(O)C(=O)CCC(=O)NCCCCCN(O)C(C)=O)c(=O)c1=O)C(=O)O)C(C)C	GLP1R	agonist, CRE luciferase reporter	BHK cells	metal-free DFO conjugate, together with: 1% HSA	reference: parent peptide	fold potency loss	3.7
COc1cc(Cl)c(C(=O)N[C@@H](CN[C@H]2CC[C@@H](N)CC2)Cc2ccc(C#N)cc2)cc1-c1ccc(CN[C@H](C)c2ccc(C)cc2)o1	ATPase family AAA domain-containing protein 2, bromodomain (ATAD2, Homo sapiens, UniProt Q6PL18)	thermal shift		25 µM, GST-tagged protein		ΔTm	4.5 °C
Cc1cc2nc3[nH]c(=O)[nH]c(=O)c3nc2cc1C	T1, riboswitch RNA yjdF aptamer (Bacillus subtilis)	fluorescence titration		together with: 380 nM lumichrome		Kd	12 nM
Nc1ncnc2c1ncn2[C@@H]1O[C@H](COP(=O)(O)CP(=O)(O)OP(=O)(O)O)[C@@H](O)[C@H]1O	P2X purinoceptor 1 (P2RX1, Homo sapiens, UniProt P51575, K136W)	calcium influx		10 nM	reference: ionomycin response	calcium influx	0% and 2.42% and 1.73%
CN1CCN(c2cc(-c3ccncc3)c(-c3ccc4ccccc4c3)nn2)CC1	GLP1R	agonist, FLIPR		12.5 µM		activation	20.6%
CC[C@@H]1[C@H](F)C(=O)N[C@@H]1COc1nccc2cc(C(N)=O)c(OC)cc12	AKT1 (Homo sapiens, UniProt P31749)	ATP probe binding, KiNativ profiling, item: ATP loop probe site	THP-1 cell lysate	0.04 mM		inhibition	7.5%
O=C(O)CN1Cc2cccc(n2)CN(CC(=O)O)Cc2cccc(n2)C1	ALB	binding	HEPES buffer	0.67 mM albumin, 1.4 T		r1 relaxivity	17.4 mM⁻¹ s⁻¹
CC[C@H](C)[C@H](NC(=O)[C@H](Cc1ccccc1)NC(=O)[C@H](CCC(=O)O)NC(=O)[C@H](CCCNC(=N)N)NC(=O)[C@H](C)NC(=O)[C@H](C)NC(=O)[C@H](CCC(N)=O)NC(=O)[C@H](CCC(=O)O)NC(=O)[C@H](CCC(=O)O)NC(=O)[C@H](CC(C)C)NC(=O)[C@H](Cc1ccc(O)cc1)NC(=O)[C@H](CO)NC(=O)[C@H](CO)NC(=O)[C@@H](NC(=O)[C@H](CC(=O)O)NC(=O)[C@H](CO)NC(=O)[C@@H](NC(=O)[C@H](Cc1ccccc1)NC(=O)[C@@H](NC(=O)CNC(=O)[C@H](CCC(=O)O)NC(=O)[C@H](C)NC(=O)CCc1cnc[nH]1)[C@@H](C)O)[C@@H](C)O)C(C)C)C(=O)N[C@@H](C)C(=O)N[C@@H](Cc1c[nH]c2ccccc12)C(=O)N[C@@H](CC(C)C)C(=O)N[C@H](C(=O)N[C@@H](CCCNC(=N)N)C(=O)NCC(=O)N[C@@H](CCCNC(=N)N)C(=O)N[C@@H](CCCCNC(=O)COCCOCCNC(=O)COCCOCCNC(=O)CC[C@H](NC(=O)CCCCCCCCCCCCCCCCC(=O)O)C(=O)O)C(=O)NCC(=O)NCC(=O)N[C@@H](CO)C(=O)N[C@@H](CCCCNc1c(NCCCCCN(O)C(=O)CCC(=O)NCCCCCN(O)C(=O)CCC(=O)NCCCCCN(O)C(C)=O)c(=O)c1=O)C(=O)N[C@@H](CCCCNc1c(NCCCCCN(O)C(=O)CCC(=O)NCCCCCN(O)C(=O)CCC(=O)NCCCCCN(O)C(C)=O)c(=O)c1=O)C(=O)O)C(C)C	GLP1R	agonist, CRE luciferase reporter	BHK cells	Zr-loaded DFO conjugate, together with: 1% HSA	reference: parent peptide	fold potency loss	1.3
CC[C@@H](C)[C@@H](NC(=O)[C@@H](Cc1ccc(O)cc1)NC(=O)[C@H]1CCCN1C(=O)[C@@H](CCCNC(=N)N)NC(=O)[C@H](N)Cc1c[nH]cn1)C(=O)N[C@H](C)C(=O)N[C@H](Cc1c[nH]cn1)C(=O)N[C@H](CCCNC(=N)N)C(=O)N[C@@H](C(=O)N[C@H](Cc1ccc(O)cc1)C(=O)N[C@H](CO)C(=O)N[C@H](Cc1ccccc1)C(N)=O)C(C)C	Transferrin receptor protein 1 (Tfrc, Mus musculus, UniProt Q62351)	flow cytometry	DC2.4	2 h, pH 6, replicate 2, unit not given	reference: 0 h	surface TFRC expression	0.952
Nc1nc2c(ncn2[C@@H]2O[C@H](COP(=O)(O)O)[C@@H](O)[C@H]2O)c(=O)[nH]1	GUK1 (Homo sapiens, UniProt Q16774)	enzyme activity, NADH-coupled		125 µM, together with: KCl 50 mM		reaction velocity	0.118 µM/s and 0.131 µM/s and 0.133 µM/s
COc1cc(/C=N/NC(=O)c2cc3c(ccc4ccccc43)o2)cc(OC)c1O	NR3C1 (Homo sapiens, UniProt P04150)	SRC1-4 coactivator displacement, inhibitor, TR-FRET		up to 100 µM, together with: dexamethasone		activity	inactive
O=C(O)c1ccc(Nc2ncc3c(n2)-c2ccc(Cl)cc2C(c2c(F)cccc2F)=NC3)cc1	human JNK1α1(h)	kinase activity		1 µM		remaining activity	122%
NCC[C@H](O)C(=O)N[C@@H]1C[C@H](N)[C@@H](O[C@H]2O[C@H](CN)[C@@H](O)[C@H](O)[C@H]2O)[C@H](O)[C@H]1O[C@H]1O[C@H](CO)[C@@H](O)[C@H](N)[C@H]1O	ALB	tryptophan fluorescence quenching		10 to 60 µM, 310 K		Stern-Volmer quenching constant	3.48 10³ M⁻¹
C=CC(=O)N1CCC(COCC(=O)N2CCN(c3nc(-c4cnc(N)nc4C(F)F)nc(N4CCOC[C@@H]4C)n3)CC2)CC1	PRKACA (Homo sapiens, UniProt P17612)	KINOMEscan		1 µM		remaining binding	92%
CC(C)C[C@@H](C=O)NC(=O)[C@H](CC(C)C)NC(=O)[C@H](CC(C)C)NC(=O)OCc1ccccc1	NanoBiT HiBiT/LgBiT luciferase	inhibitor, HiBiT luminescence counterscreen	conditioned medium only	1.66 µM, 24 h	reference: vehicle	luminescence signal reduction	-1.61%
Oc1ccccc1-c1n[nH]cc1-c1ccnc2ccccc12	Serine/threonine-protein kinase SSN3 (SSN3, Candida albicans, UniProt Q5AHK2)	kinase binding, MIB/MS competition	Candida albicans lysate	10 µM	reference: DMSO, negative = stronger binding	log2 fold change	0
CCOc1ccc(NC(=O)OC(Cn2nc(C(C)C)cc2C(C)C)C(C)C)cc1 (stereo not drawn)	Neuronal acetylcholine receptor; alpha4/beta2, (α4)2(β2)3 stoichiometry (Homo sapiens, UniProt P17787+P43681)	ACh-evoked current, two-electrode voltage clamp		1 µM, high-sensitivity stoichiometry, together with: ACh 1 µM	reference: ACh alone	current	561 ± 50%
NC/C(=C\F)COc1cccc(Cn2c(=S)[nH]c(=O)c3[nH]cnc32)c1	Myeloperoxidase (MPO, Homo sapiens, UniProt P05164)	inhibitor, cholesteryl ester hydroperoxide		0.00069 µM	reference: control	LDL lipid peroxidation	103% and 106% and 71.4% and 95.9%
NCCS(=O)(=O)O	SLC6A6 (Homo sapiens, UniProt P31641, Y138A)	binding, microscale thermophoresis		244 nM, room temperature, together with: 50 nM labelled protein	higher = more binding	normalised MST signal	0.0317
O=c1nc(SCc2cc(F)cc(C(F)(F)F)c2)nc(SCc2ccc3sccc3c2)[nH]1	TOP2A (Homo sapiens, UniProt P11388)	DNA cleavage		7.8 µM, together with: etoposide 50 µM		linear DNA	12.1%
NS(=O)(=O)c1ccc(Nc2nc(-c3ccc(F)cc3)c3ccccc3n2)cc1	Transcription intermediary factor 1-alpha, PHD-bromodomain (TRIM24, Homo sapiens, UniProt O15164)	BROMOscan		1000 nM	reference: untreated control, lower = stronger binding	remaining binding	74%
CC[C@H](C)[C@H](NC(=O)[C@H](Cc1ccccc1)NC(=O)[C@H](CCC(=O)O)NC(=O)[C@H](CCCNC(=N)N)NC(=O)[C@H](C)NC(=O)[C@H](C)NC(=O)[C@H](CCC(N)=O)NC(=O)[C@H](CCC(=O)O)NC(=O)[C@H](CCC(=O)O)NC(=O)[C@H](CC(C)C)NC(=O)[C@H](Cc1ccc(O)cc1)NC(=O)[C@H](CO)NC(=O)[C@H](CO)NC(=O)[C@@H](NC(=O)[C@H](CC(=O)O)NC(=O)[C@H](CO)NC(=O)[C@@H](NC(=O)[C@H](Cc1ccccc1)NC(=O)[C@@H](NC(=O)CNC(=O)[C@H](CCC(=O)O)NC(=O)[C@H](C)NC(=O)CCc1cnc[nH]1)[C@@H](C)O)[C@@H](C)O)C(C)C)C(=O)N[C@@H](C)C(=O)N[C@@H](Cc1c[nH]c2ccccc12)C(=O)N[C@@H](CC(C)C)C(=O)N[C@H](C(=O)N[C@@H](CCCNC(=N)N)C(=O)NCC(=O)N[C@@H](CCCNC(=N)N)C(=O)N[C@@H](CCCCNC(=O)COCCOCCNC(=O)COCCOCCNC(=O)CC[C@H](NC(=O)CCCCCCCCCCCCCCCCC(=O)O)C(=O)O)C(=O)NCC(=O)NCC(=O)N[C@@H](CO)C(=O)N[C@@H](CCCCNC(=O)[C@H](CCCCNc1c(NCCCCCN(O)C(=O)CCC(=O)NCCCCCN(O)C(=O)CCC(=O)NCCCCCN(O)C(C)=O)c(=O)c1=O)Nc1c(NCCCCCN(O)C(=O)CCC(=O)NCCCCCN(O)C(=O)CCC(=O)NCCCCCN(O)C(C)=O)c(=O)c1=O)C(=O)O)C(C)C	GLP1R	agonist, CRE luciferase reporter	BHK cells	metal-free DFO conjugate, together with: 0% HSA	reference: parent peptide	fold potency loss	2.9
O=C(CO)NC1C(O)CC(OCC2OC(Oc3ccc([N+](=O)[O-])cc3)C(O)C(O)C2O)(C(=O)O)OC1C(O)C(O)CO (stereo not drawn)	Sialidase-2 (Homo sapiens, UniProt Q9Y3R4)	substrate		10 min, pH 5.0, 37 °C		Vmax	0.0019 ± 0.0001 mM/s
CC(C)[C@H](NC(=O)c1cc(-c2cnn3cc(-c4ccc(OCCN5CCCCC5)cc4)cnc23)cs1)C(F)(F)F	PYK2 (human)	radiometric kinase		15 nM	reference: PYK2 over ULK1	relative inhibition	0

A few entries again:
Structure (SMILES)	target	test	test system	conditions	how to read	measurement	value
CC[C@@H]1[C@H](F)C(=O)N[C@@H]1COc1nccc2cc(C(N)=O)c(OC)cc12	AKT1 (Homo sapiens, UniProt P31749)	ATP probe binding, KiNativ profiling, item: ATP loop probe site	THP-1 cell lysate	0.04 mM		inhibition	7.5%
CC1CCCN(C(=O)c2cc3ncccn3n2)C1 (stereo not drawn)	Transcription intermediary factor 1-beta, PHD-bromodomain (TRIM28, Homo sapiens, UniProt Q13263)	binding, affinity selection mass spectrometry			reference: other proteins in batch	fold enrichment	0.992
O=C(O)c1ccc(Nc2ncc3c(n2)-c2ccc(Cl)cc2C(c2c(F)cccc2F)=NC3)cc1	human JNK1α1(h)	kinase activity		1 µM		remaining activity	122%
